Results from different studies.
Each numbered part is a random draw from the data of one study; scales do not carry over between parts. Changes are numbered by the printed parent chain.
Chain of UniProt Q9UQM7 (whole entry, looked up): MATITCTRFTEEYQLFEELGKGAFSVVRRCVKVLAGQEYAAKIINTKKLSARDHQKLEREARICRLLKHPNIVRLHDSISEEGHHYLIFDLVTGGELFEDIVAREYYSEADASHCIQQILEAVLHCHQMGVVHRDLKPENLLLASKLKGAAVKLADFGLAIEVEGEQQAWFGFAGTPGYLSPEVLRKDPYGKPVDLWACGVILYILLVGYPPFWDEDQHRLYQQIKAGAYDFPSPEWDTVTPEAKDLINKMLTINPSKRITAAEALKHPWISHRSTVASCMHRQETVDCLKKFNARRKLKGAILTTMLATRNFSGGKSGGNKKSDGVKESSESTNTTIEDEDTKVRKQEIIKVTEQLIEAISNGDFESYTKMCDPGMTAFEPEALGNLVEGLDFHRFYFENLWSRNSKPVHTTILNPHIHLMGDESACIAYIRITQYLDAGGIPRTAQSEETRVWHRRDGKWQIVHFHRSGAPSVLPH

Set 1
Target: UDP-N-acetylglucosamine--peptide N-acetylglucosaminyltransferase 110 kDa subunit (OGT, Homo sapiens, UniProt O15294)
Chain of UniProt O15294 (whole entry, looked up): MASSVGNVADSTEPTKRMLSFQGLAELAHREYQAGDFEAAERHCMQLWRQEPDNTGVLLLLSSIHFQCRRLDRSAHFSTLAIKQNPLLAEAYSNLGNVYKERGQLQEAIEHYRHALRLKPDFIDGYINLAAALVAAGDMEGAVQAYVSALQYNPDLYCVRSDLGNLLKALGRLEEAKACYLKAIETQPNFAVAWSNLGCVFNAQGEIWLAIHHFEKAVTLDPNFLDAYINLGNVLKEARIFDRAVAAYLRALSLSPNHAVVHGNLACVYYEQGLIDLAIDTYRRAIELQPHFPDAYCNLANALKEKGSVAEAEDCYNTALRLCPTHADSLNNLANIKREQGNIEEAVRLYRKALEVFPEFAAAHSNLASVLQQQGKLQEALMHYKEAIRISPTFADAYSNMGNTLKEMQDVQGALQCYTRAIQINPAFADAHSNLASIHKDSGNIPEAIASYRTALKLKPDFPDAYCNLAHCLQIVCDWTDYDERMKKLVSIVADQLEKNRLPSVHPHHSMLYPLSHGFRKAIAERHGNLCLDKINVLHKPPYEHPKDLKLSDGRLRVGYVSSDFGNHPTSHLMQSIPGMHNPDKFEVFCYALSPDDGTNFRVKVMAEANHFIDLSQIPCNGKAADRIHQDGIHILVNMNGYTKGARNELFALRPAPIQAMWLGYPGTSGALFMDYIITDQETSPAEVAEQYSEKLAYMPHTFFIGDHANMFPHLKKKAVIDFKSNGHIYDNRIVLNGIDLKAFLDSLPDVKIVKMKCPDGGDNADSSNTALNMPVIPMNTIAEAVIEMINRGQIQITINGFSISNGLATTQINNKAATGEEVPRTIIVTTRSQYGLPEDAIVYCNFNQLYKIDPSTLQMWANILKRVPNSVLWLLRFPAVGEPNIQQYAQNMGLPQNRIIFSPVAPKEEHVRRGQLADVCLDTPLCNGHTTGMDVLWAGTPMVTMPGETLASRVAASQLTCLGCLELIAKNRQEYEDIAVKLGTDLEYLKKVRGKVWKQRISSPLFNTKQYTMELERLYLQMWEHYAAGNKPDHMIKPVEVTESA
Effect on: binding
Method: phage display NGS
Molecule type: peptide
Notes: panning round 2
Relative to: input library
Molecule	minimum log2 enrichment ratio
HPHGHRNTAISWTAM	2.2
HPSHRWHYNETHTD	2.84
HTSIAHHLHIGTIQT	2.63
QVFWPQYQINIPKLN	3.83
TWHGSYKYRQHYAQN	2.28
THPTKYHRHDHIRMI	2.44
ANTLDYTPFYTIEY	2.13
YEYYQVGVHHHPLHL	2.48

Set 2
Target: tungstate, free oxyanion
Method: microfluidic competitive inhibition
Medium: in vitro, cell-free expressed
Tested at: not given
Notes: derived from inhibition constants, unchanged parent 2230 nM
Reading: lower = stronger binding
Parent: PafA, mature enzyme, eGFP fusion (Elizabethkingia meningoseptica, UniProt Q9KJX5); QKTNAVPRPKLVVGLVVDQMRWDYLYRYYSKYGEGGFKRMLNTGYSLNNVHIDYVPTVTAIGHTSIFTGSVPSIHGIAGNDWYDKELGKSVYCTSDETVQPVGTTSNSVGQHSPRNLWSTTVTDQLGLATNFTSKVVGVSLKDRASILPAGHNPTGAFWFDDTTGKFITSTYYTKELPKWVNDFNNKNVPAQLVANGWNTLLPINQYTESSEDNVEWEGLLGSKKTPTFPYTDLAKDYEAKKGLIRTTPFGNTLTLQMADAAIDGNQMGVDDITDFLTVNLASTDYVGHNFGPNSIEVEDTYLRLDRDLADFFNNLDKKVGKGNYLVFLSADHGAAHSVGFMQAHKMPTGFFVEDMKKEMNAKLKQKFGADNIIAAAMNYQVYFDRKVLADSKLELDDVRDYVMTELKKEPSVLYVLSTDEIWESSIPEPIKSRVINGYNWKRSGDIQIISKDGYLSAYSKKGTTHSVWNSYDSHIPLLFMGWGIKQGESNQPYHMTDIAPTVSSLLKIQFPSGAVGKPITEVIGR
Substitution	oxyanion analog dissociation constant [nM]
Y325G	1320
A370G	2070
W483G	2470
A259G	2380
L456G	1270
S73G	1460
Y455G	983
I296G	1990

Set 3
Target: CCNA1, cyclin fold, Cln2 fusion (human)
Method: yeast growth competition, sequencing
Medium: yeast
Notes: weak parent motif
Relative to: not given
Reading: higher = stronger binding
Parent: viral docking peptide; KGVKRKLFAEDSS; partner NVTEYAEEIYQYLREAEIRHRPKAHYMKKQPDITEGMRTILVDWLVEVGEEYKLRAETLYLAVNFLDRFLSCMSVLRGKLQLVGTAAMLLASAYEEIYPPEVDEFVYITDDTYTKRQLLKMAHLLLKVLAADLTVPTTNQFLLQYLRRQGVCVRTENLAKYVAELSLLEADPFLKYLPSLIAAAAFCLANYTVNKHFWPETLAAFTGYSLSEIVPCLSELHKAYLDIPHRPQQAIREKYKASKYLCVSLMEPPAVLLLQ
Substitution	normalised enrichment score
G2Q	1.35
K4P	0.135
R5G	-0.472
D11R	0.471
L7D	-0.0568
A9I	1.14
A9T	1.1
V3E	0.35

Other studies, line by line
SMILES	target	effect on	mode	tested at	measurement	value
c1ccc2c(c1)[nH]c1cnccc12	Calcium/calmodulin-dependent protein kinase type II subunit alpha (CAMK2A, Homo sapiens, UniProt Q9UQM7)	enzyme activity	inhibitor	10 µM	inhibition	14%

Repeated from above (set 1):
Molecule	minimum log2 enrichment ratio
ANTLDYTPFYTIEY	2.13
HPSHRWHYNETHTD	2.84
